Published values gathered from unrelated publications.
Each numbered part is a random draw from the data of one study; scales do not carry over between parts.

Series 1
Target: Interferon regulatory factor 7, full length, phosphomimetic (IRF7, Homo sapiens, UniProt Q92985, residues 1-503, S101K/S471D/S472D/S475D/S476D/S477D/S483D/S484D/S487D)
Sequence of UniProt Q92985 (whole entry, unmodified, looked up): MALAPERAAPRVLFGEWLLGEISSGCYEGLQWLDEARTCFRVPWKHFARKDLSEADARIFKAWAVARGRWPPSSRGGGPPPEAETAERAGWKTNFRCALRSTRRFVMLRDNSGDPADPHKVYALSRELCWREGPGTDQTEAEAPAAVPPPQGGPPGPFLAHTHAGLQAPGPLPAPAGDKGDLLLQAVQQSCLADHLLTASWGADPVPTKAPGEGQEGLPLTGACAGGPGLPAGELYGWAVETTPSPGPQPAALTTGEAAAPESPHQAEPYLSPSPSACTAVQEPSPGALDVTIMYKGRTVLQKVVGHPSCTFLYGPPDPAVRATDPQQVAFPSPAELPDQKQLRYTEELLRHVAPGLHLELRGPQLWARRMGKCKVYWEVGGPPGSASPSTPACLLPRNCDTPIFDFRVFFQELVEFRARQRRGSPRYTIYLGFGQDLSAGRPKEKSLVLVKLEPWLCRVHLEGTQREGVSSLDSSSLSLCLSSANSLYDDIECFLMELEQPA
Method: protein-binding microarray
Molecule type: double-stranded DNA, one strand shown
Medium: in vitro
Tested at: 250 nM
Setting: 60-bp whole probe
Added: salmon DNA 0.4 mg/ml
Reference: random background probes
Reading: higher = stronger binding
All sequences stand within: GCCTAGCAC … GTCTTGATTCGCTTGACGCTGCTG
Sequence	log fluorescence
TTAGAACTGAGTAACGATTAGTGCTAG	0.0671 z-score
GGGTCTCTGGGTCGGGCAGGGTGCTAG	0.265 z-score
GACGGACTGGGGTTTTGGGACGTGCTA	-0.517 z-score
TTATGACTGCTTTTCCTTTAGTGCTAG	0.416 z-score
TTAGGTTTCCTCCTGCTTTAGTGCTAG	1.13 z-score
GACGGCTTCGGTTCCGGGACGTGCTAG	0.659 z-score
GCTGGTCACTCTCTGGGCTGGTGCTAG	-0.939 z-score
TTGGGACTGGGGACTGGGTTAGTGCTA	-0.558 z-score
TCATCTTGCTTTTTAGAACTGTGCTAG	0.436 z-score
TTAGGTATCCTGCTCCTTTAGTGCTAG	-0.27 z-score
TAGTTTTACTTTCTATGTCTGTGCTAG	2.98 z-score
TCAGATTTCAATTAGAAACTGTGCTAG	1.34 z-score
TTAGGTTCCCTGTTCCTTTAGTGCTAG	1.28 z-score
TCTTTTTATGCTTTCTTTAAGTGCTAG	1.73 z-score
TCAATTCTCATTTCCAAACTGTGCTAG	1.63 z-score
TTAGGTTTCGACTACCGGTTAGTGCTA	5.07 z-score
TCAACTCTAATATTGAGACTGTGCTAG	0.129 z-score
TTAGGACTCCTACTGCTTTAGTGCTAG	0.0114 z-score
GACGGTCTCAGACTGGGGACGTGCTAG	-0.259 z-score
TTAGATATCAGTATAGATTAGTGCTAG	-0.0998 z-score
TTAGTTATCGGGACTGGATTAGTGCTA	0.347 z-score
GACGGACTGAGTATCGGGACGTGCTAG	-0.31 z-score
TCAACTTTCCAAAACATACTGTGCTAG	0.576 z-score
TTATGTCTCCTTATCCTTTAGTGCTAG	0.412 z-score

Series 2
Target: RING finger protein unkempt homolog, zinc fingers 1-6, SBP tag (UNK, Homo sapiens, UniProt Q9C0B0, residues 30-357)
Method: RNA Bind-n-Seq
Molecule type: RNA
Medium: in vitro
Tested at: 100 nM
Setting: RNA with constant flanks, vertebrate orthologous sites, ends assumed
Reference: input RNA pool
Reading: higher = stronger binding
All sequences stand within: GGGAGUUCUACAGUCCGACGAUC … CAACAGAGGAUUGAGCAUCA
Sequence	bound/input enrichment [ratio]
CAUGCACAUGCCGCUGUCACCAAAAGCAAAUACCUUUUUCAGAUUCAUUAAUAGCAUUUUUAGUACUUCCUCCUUCCUUCUAAUAGUUUAUAGCAUUAGGGGAACAGAAGUCCUGGUUCU	2.09
CAGCCGAUUCUCUCAUAGGGAGAGCUGCACACAUUGCUGUUCUUGAUUCAGAAAUAUUUUUAGAAAAGUUCUUUCUGGUUGCUGCCCUAAAAUAUUUCCAGUAGAAGAAAAGCAUUGUAA	0.582
UUCACUUCCAGGUUGGGCCUAGUGGAAAAGUCAUAGGAAUUGACCACAUUAAAGAGCUAGUAGACGACUCAGUAAAUAAUGUCAGAAAGGAUGAUCCAAUGCUUUUGUCUUCAGGGAGAG	0.666
AUCAUCUGAUUGGAUGAAGACUGUUCCAAGUUAUAACCAGACAAAUAGCUCCAUGGACUUCAGAAAUUAUAUGAUGAGAGAUGAGAAUCUGGAACCACUGCCAAAAAACUGGGAAAUGGC	0.397
CUACUGUAAACAACUCAGGGCAGUAUUCUCGAUACCCUUACAGUAACCUAAAUCAGGGAUUAGUUAACAGUACAGGGAUGAAUCAAAAUUUAGGCCUUACAAACAGUACUCCAAUGAAUC	1.1
CCUACAAUAAUGAAAACCUAUAGAAAUUUUUUAAUUUUUCAUUUUCCCCUUAGGCAUACAUAGUCUUUUUCCCCCCAGGCAGAUCAUUCUGAGUGUGCGAGUGUGUGUGCACAUGUUACG	2.15
GCAUGCACAUGCCGCUGUCACCAAAAGCAACUACCGUCUUCAAAAUCUCCAAUAGCCUUCUUAGGAUUCUCUCCCUCUUUCCCUUCUGUUCUCCCGAUGCUUUAAAUGAUUAGAAGUCCU	2.44
UCCUCAACUUGUUCUAGCUUGUGAUCCUUCAAAGUUGGGUCAGGCAUUAGUGCUAGAUACUAGAAAUUUUCAUUUCCCUGUUGUUAUUGAUCAGUGGGACAGGCAUUAAUUAAAAACAGA	0.947

Series 3
Target: Centromere-binding protein 1, full length, N-terminal tag (CBF1, Saccharomyces cerevisiae, UniProt P17106, residues 1-351)
Sequence of UniProt P17106 (whole entry, looked up): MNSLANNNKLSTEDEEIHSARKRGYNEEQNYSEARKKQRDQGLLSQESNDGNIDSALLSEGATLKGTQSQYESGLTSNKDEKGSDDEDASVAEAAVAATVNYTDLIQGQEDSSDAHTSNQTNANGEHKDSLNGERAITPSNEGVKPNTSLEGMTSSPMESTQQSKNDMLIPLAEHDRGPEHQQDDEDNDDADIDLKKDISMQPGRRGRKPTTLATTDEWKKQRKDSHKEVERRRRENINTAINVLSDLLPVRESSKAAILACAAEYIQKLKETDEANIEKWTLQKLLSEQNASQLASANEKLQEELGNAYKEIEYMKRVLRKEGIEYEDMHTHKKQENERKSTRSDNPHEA
Method: protein-binding microarray
Molecule type: double-stranded DNA, one strand shown
Medium: in vitro
Tested at: 0.8 µM
Setting: whole 60-bp probe, no competitor
Reading: higher = stronger binding
All sequences stand within: … GTCTTGATTCGCTTGACGCTGCTG
Sequence	fluorescence intensity [a.u.]
CTACTTGAAAATTGGCACGTTTTCTTCTTGTTTTTC	673
GAAACAATATACACGCGCGTGCGTAGATATATATAG	968
GAAATGAAATAATAACATGTGCGGTAAAACAACTAG	863
GAATGCACACGAAATCACGAGAATAATCACGAGTAG	1110
GAATTTGGACAATTACACGAGATCTTTATTAAATAG	694
GAAATATTATAAACTGACGTGGAAAGGCAAAAGTAG	524
GAACATTTGATCTCGAACGTGGTAAACTTGAATTAG	596
CTAACAATAAAAAACCACGGGATCAGCATTAACTTC	2050
TGTACGAAGCTATACAGCGTGAATATAGTAGTTAGG	533
GAACAAAGTACGAGTCACGACATGTAACAAGGGTAG	1010
CTAGCTTTCATGCCATTGGTGACACGAAAAAAATTC	567
CTAGCTAAAGGAGGTCACGAAAACGAATCTGGCTTC	545
GAATTATGCTCAAGTCACGAAGCTGTTGCCAAATAG	598
GAACCCATATTAAATCACGCCTATCAACACTTATAG	920
CCTAACTACTATACTTACACCACATAGCTTCGTACA	531

Series 4
Target: CDC34 UBC core domain (UniProt P49427)
Method: yeast two-hybrid
Medium: yeast
Setting: mostly zero background
Reference: not given
Reading: higher = stronger interaction
B1: TRIM40 RING domain (UniProt Q6P9F5); chain LQKDNQEEGVCPICQESLKEAVSTNCGHLFCRVCLTQHVEKASASGVFCCPLCRKPCSEEVLG
B2: RC3H1 RING domain (UniProt Q5TC82); chain QAPQWTDFLSCPICTQTFDETIRKPISLGCGHTVCKMCLNKLHRKACPFDQTTINTDIELL
B3: TRIM5 RING domain (UniProt Q9C035); chain LREVKLSPEGQKVDHCARHGEKLLLFCQEDGKVICWLCERSQEHRGHHTFLTEEVAREYQVKL
B4: TRIML1 RING domain (UniProt Q8N9V2); chain LMENLREELTCFICLDYFSSPVTTECGHSFCLVCLLRSWEEHNTPLSCPECWRTLEGPHFQS
B5: MKRN1 RING domain (UniProt Q9UHC7); chain FAVQRSKDMVCGICMEVVYEKANPSERRFGILSNCNHTYCLKCIRKWRSAKQFESKIIKSCPECRITSNFVIPSE
B6: TRIM24 RING domain (UniProt O15164); chain EAARLNLLDTCAVCHQNIQSRAPKLLPCLHSFCQRCLPAPQRYLMLPAPMLGSAETPPPVPAPGSPVSGSSPFATQVGVIRCPVCSQECAERHII
Residues (chain): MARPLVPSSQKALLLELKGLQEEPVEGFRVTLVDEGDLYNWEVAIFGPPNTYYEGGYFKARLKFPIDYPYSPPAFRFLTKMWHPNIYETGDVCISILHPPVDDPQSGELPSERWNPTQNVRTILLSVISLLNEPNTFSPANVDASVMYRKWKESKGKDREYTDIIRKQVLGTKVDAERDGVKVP
Sequence	lacZ reporter activity
FQGDVDEDLICPICSGVLEEPVQAPHCEHAFCNACITQWFSQQQTCPVDRSVVTVAHLRP (RNF41 RING domain (UniProt Q9H4P4))	0
B1 (TRIM40 RING domain)	0
B2 (RC3H1 RING domain)	0
MPIRALCTICSDFFDHSRDVAAIHCGHTFHLQCLIQWFETAPSRTCPQCRIQVGKRTIIN (TRAIP RING domain (UniProt Q9BWF2))	0
B3 (TRIM5 RING domain)	0
PAELEVQASECVVCLEREAQMIFLNCGHVCCCQQCCQPLRTCPLCRQDIAQRLRIY (LRSAM1 RING domain (UniProt Q6UWE0))	0
B4 (TRIML1 RING domain)	0
DHGAVGQEMCCPICCSEYVKGEVATELPCHHYFHKPCVSIWLQKSGTCPVCRCMFPPPL (PJA1 RING domain (UniProt Q8NG27))	0
B5 (MKRN1 RING domain)	0
B6 (TRIM24 RING domain)	0
QVDKAVFHMQSVKCLKCQEQKRAVLPCQHAALCELCAEGSECPICQPGRAHTLQS (UNK RING domain (UniProt Q9C0B0))	0

A few entries again (series 1):
Sequence	log fluorescence
TCAGATTTCAATTAGAAACTGTGCTAG	1.34 z-score
TTAGAACTGAGTAACGATTAGTGCTAG	0.0671 z-score
TCAACTCTAATATTGAGACTGTGCTAG	0.129 z-score
GGGTCTCTGGGTCGGGCAGGGTGCTAG	0.265 z-score
TTAGTTATCGGGACTGGATTAGTGCTA	0.347 z-score
